Published values collected from several papers.
Every numbered part comes from another study and shows a few of its results, in no order. Positions count from the first letter of the parent shown.
Chain of UniProt Q6DT37 (whole entry, looked up): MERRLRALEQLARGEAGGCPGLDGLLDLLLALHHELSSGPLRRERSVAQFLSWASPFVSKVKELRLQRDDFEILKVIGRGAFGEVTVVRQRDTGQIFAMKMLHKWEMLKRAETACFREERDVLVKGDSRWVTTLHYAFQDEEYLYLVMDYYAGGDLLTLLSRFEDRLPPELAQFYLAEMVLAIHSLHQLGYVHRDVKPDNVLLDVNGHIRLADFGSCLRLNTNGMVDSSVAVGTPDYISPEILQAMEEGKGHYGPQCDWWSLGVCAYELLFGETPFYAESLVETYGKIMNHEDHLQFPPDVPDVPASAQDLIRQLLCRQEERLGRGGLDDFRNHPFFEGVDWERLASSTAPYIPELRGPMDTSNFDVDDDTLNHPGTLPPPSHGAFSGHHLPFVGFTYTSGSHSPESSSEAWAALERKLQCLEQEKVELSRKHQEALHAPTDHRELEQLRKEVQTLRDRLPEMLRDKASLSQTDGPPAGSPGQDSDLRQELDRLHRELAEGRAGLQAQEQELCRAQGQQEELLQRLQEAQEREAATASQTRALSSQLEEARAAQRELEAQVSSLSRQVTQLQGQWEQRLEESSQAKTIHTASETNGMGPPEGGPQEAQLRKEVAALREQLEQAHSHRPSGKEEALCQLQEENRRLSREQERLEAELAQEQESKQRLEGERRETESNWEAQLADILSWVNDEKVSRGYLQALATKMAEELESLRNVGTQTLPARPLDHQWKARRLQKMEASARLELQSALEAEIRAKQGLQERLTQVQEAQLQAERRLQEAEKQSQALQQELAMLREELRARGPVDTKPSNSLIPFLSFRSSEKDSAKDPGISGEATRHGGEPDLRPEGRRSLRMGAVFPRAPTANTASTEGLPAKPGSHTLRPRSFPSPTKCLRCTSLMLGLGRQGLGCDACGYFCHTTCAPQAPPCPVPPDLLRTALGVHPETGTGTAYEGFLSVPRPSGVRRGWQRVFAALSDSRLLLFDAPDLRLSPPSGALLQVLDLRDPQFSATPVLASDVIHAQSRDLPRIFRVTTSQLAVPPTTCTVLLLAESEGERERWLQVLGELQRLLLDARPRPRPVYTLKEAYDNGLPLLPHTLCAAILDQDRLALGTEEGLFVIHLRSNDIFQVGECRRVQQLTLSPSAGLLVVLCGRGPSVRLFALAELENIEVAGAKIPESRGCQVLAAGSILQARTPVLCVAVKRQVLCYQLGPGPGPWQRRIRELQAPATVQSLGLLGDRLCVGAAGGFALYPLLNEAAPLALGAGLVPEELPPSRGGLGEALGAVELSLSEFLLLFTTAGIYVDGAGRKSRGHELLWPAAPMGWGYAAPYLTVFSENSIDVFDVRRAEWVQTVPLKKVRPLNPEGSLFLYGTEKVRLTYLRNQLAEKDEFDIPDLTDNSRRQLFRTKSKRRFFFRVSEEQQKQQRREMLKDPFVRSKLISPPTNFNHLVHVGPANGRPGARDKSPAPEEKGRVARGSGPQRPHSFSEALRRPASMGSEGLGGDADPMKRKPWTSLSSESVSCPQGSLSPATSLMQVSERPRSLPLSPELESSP
Chain of UniProt Q04912 (whole entry, looked up): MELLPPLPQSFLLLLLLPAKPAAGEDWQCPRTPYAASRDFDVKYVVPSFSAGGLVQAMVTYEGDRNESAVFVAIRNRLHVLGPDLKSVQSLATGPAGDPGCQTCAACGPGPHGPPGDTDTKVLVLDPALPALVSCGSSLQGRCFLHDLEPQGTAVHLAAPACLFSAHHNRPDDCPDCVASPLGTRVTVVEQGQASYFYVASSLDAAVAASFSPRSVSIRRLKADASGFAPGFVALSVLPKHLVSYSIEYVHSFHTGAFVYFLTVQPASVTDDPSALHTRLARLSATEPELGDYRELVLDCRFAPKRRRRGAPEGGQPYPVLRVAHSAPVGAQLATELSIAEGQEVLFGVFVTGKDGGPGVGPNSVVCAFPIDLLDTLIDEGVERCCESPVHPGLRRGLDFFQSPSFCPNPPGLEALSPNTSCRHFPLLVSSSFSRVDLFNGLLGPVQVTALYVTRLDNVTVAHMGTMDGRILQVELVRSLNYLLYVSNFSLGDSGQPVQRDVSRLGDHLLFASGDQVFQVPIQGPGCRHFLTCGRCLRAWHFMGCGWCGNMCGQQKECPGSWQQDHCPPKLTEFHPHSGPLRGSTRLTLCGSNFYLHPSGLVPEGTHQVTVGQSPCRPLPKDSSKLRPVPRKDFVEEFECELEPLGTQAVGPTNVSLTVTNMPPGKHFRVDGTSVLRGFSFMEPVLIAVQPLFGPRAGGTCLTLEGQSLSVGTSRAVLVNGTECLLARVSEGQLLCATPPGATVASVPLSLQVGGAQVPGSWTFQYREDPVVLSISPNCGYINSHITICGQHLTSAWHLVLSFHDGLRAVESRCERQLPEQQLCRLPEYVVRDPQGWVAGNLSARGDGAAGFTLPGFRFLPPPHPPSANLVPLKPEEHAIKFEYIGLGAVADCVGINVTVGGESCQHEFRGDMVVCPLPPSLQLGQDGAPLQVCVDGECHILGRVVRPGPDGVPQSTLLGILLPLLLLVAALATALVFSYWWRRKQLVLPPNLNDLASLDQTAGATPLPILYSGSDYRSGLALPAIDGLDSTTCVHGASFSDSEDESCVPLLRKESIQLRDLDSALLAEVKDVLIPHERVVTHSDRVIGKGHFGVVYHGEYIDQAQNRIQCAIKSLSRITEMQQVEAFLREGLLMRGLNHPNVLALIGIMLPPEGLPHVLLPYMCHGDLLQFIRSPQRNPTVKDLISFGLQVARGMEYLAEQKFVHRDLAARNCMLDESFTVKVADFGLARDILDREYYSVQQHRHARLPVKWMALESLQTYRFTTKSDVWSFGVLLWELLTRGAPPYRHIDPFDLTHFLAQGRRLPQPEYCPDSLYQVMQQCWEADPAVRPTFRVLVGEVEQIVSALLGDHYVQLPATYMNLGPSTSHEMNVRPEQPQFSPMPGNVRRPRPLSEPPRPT
Chain of UniProt P06239 (whole entry, looked up): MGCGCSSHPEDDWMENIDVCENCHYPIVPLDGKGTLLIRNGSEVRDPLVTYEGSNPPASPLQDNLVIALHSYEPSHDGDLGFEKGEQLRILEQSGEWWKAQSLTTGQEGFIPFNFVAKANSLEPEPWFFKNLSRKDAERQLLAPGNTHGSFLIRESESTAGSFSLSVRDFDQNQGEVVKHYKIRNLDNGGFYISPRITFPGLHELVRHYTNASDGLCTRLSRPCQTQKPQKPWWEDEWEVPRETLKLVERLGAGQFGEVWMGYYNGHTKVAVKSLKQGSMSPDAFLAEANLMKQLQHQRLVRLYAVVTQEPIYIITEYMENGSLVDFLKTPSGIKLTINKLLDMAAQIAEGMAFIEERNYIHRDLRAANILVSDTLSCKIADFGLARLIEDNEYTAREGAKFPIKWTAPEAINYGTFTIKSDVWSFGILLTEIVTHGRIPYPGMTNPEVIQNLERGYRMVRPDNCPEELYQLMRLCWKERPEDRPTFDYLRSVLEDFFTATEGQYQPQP
Chain of UniProt P31751 (whole entry, looked up): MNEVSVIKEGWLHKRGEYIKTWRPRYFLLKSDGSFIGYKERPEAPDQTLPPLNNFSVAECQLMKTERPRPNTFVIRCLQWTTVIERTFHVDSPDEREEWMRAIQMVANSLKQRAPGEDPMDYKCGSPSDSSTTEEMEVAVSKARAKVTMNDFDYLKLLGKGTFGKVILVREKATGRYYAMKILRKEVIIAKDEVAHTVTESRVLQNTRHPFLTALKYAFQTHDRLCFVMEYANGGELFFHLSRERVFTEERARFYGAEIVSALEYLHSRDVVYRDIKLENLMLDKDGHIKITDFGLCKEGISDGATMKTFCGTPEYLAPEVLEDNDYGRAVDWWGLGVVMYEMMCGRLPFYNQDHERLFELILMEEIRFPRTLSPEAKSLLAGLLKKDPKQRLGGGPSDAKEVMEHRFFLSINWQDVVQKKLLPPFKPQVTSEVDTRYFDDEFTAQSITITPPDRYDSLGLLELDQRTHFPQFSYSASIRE
Chain of UniProt P54760 (whole entry, looked up): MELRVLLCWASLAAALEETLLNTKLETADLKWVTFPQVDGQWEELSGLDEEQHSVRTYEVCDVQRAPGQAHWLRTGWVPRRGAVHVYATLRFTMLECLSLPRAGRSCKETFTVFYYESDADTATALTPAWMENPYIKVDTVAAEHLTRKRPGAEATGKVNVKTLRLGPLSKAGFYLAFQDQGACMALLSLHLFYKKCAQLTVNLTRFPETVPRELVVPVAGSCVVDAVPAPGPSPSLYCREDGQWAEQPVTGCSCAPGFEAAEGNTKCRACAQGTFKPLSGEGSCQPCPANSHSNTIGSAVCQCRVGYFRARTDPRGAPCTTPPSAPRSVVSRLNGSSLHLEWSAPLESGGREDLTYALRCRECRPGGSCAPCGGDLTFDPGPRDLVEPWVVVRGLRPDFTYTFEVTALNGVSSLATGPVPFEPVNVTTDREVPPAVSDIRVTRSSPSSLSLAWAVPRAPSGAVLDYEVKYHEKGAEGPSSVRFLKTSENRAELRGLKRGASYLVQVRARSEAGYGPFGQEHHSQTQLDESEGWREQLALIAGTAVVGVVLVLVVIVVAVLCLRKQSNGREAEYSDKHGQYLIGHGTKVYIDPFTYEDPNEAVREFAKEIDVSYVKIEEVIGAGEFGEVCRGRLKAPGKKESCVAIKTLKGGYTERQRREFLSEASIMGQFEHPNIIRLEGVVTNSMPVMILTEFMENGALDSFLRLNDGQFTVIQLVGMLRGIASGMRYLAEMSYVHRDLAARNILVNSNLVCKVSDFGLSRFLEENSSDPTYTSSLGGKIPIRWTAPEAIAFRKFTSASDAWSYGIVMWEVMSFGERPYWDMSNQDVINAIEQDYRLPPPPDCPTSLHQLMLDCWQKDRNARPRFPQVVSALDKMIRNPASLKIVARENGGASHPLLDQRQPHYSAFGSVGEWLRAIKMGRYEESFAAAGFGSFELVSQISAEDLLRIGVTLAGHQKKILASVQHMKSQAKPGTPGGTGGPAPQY

Series 1 — Substitution: Y18R; method: DHFR PCA, deep sequencing; sample: yeast; reference: wild-type fitted maximum; direction: higher = stronger binding; quantity: relative binding score
Target: ABI1, truncated, D143A, DHFR fusion (Arabidopsis thaliana)
Notes: methotrexate growth selection, single substitutions
Starting sequence: PYL1, truncated, DHFR fusion (Arabidopsis thaliana); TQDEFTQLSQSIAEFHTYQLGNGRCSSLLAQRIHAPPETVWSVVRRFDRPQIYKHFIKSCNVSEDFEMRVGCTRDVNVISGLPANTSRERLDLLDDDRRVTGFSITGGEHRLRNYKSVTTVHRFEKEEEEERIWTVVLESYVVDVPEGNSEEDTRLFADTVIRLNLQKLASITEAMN; partner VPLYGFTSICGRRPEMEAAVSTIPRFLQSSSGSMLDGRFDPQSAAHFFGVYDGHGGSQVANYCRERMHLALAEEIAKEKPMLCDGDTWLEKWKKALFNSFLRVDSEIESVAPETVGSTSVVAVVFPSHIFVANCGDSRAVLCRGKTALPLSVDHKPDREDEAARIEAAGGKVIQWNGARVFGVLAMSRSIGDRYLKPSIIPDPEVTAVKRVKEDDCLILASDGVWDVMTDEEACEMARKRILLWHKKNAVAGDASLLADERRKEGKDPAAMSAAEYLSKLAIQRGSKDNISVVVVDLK
together with: (+)-ABA 2500 µM: 95.1%
together with: (+)-ABA 710 µM: 94.6%
together with: (+)-ABA 0 µM: 1.57%
together with: (+)-ABA 0.39 µM: -4.28%
together with: (+)-ABA 1.4 µM: 10%
together with: (+)-ABA 4.8 µM: 32.8%

Series 2 — method: DNA-protein interaction ELISA; form: double-stranded DNA, one strand shown; sample: in vitro, bacterial lysate; tested at: not given; notes: whole dsDNA probe, crude lysate protein; reference: highest signal in screen; direction: higher = stronger binding; quantity: relative absorbance
Target: Probable WRKY transcription factor 11, DNA-binding domain (WRKY11, Arabidopsis thaliana, UniProt Q9SV15, residues 228-325)
Target sequence (chain): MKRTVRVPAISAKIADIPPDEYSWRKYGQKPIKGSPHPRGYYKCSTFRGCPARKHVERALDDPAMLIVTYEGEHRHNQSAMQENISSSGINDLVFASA
AAAAAATATCCTATTCTAATTTATATAAAA: 13.5 % of maximum
AAAAAACGTATTGATGTCTATTTCAAAAAA: 14.7 % of maximum
AAAAAAATGATTTGCAGATCTCCGAGAAAA: 17 % of maximum
AAAAAAATCCATATTATTGCTACCCGAAAA: 15.8 % of maximum
AAAAAACTCTTAAGGAAAGTTCCGACAAAA: 16.1 % of maximum
AAAAAAATGATTGCCAATGCTCGCAAAAAA: 17.9 % of maximum
AAAAAACTACGTATATTCAGGCCCTAAAAA: 17.3 % of maximum
AAAAAATCCGTTCCCATTTGTCCGTCAAAA: 15 % of maximum

Series 3 — effect on: enzyme activity; mode: inhibitor; tested at: 0.5 µM; reference: control; quantity: remaining activity
SMILES: Cc1ccc(Nc2nccc(N(C)c3ccc4c(C)n(C)nc4c3)n2)cc1S(N)(=O)=O
Tyrosine-protein kinase Lck (LCK, Homo sapiens, UniProt P06239): 43.3%
Mitogen-activated protein kinase 3 (MAPK3, Homo sapiens, UniProt P27361): 102%
Macrophage-stimulating protein receptor (MST1R, Homo sapiens, UniProt Q04912): 97.8%
Fibroblast growth factor receptor 3 (FGFR3, Homo sapiens, UniProt P22607): 39.3%
Rhodopsin kinase GRK7 (GRK7, Homo sapiens, UniProt Q8WTQ7): 96.5%

Series 4 — tested at: 0.1 µM; quantity: remaining binding
Compound: Nc1c(C(=O)NCc2ccc(C(=O)NCCCC3CCCCC3)cc2)cnn1-c1ccccc1
RAC-beta serine/threonine-protein kinase (AKT2, Homo sapiens, UniProt P31751); cell-free assay, competition with immobilised ligand: 96%
Ephrin type-B receptor 4 (EPHB4, Homo sapiens, UniProt P54760); cell-free assay, competition with immobilised ligand: 100%
Serine/threonine-protein kinase PLK2 (PLK2, Homo sapiens, UniProt Q9NYY3); cell-free assay, competition with immobilised ligand: 100%
Phosphatidylinositol 4,5-bisphosphate 3-kinase catalytic subunit alpha isoform (PIK3CA, Homo sapiens, UniProt P42336, Q546K); cell-free assay, competition with immobilised ligand: 96%
Non-receptor tyrosine-protein kinase TYK2, JH1 (TYK2, Homo sapiens, UniProt P29597); cell-free assay, competition with immobilised ligand: 100%
Mitogen-activated protein kinase kinase kinase 10 (MAP3K10, Homo sapiens, UniProt Q02779); cell-free assay, competition with immobilised ligand: 85%
Serine/threonine-protein kinase 17A (STK17A, Homo sapiens, UniProt Q9UEE5); cell-free assay, competition with immobilised ligand: 100%
Serine/threonine-protein kinase MRCK gamma (CDC42BPG, Homo sapiens, UniProt Q6DT37); competition binding: 100%
Phosphatidylinositol 4-phosphate 3-kinase C2 domain-containing subunit beta (PIK3C2B, Homo sapiens, UniProt O00750); cell-free assay, competition with immobilised ligand: 99%

Some of these lines once more (series 3):
Tyrosine-protein kinase Lck (LCK, Homo sapiens, UniProt P06239): 43.3%
Mitogen-activated protein kinase 3 (MAPK3, Homo sapiens, UniProt P27361): 102%
Macrophage-stimulating protein receptor (MST1R, Homo sapiens, UniProt Q04912): 97.8%
Fibroblast growth factor receptor 3 (FGFR3, Homo sapiens, UniProt P22607): 39.3%
